Assay results of several laboratories.
Each line is one published result; not all experiments were run side by side. Values joined by “and” are separate records of one study, mostly repeats; a detail may differ. ± gives the spread as reported. In brackets after ≈: the same amount, converted by molar mass.
UniProt O96013, sequence (whole entry, looked up): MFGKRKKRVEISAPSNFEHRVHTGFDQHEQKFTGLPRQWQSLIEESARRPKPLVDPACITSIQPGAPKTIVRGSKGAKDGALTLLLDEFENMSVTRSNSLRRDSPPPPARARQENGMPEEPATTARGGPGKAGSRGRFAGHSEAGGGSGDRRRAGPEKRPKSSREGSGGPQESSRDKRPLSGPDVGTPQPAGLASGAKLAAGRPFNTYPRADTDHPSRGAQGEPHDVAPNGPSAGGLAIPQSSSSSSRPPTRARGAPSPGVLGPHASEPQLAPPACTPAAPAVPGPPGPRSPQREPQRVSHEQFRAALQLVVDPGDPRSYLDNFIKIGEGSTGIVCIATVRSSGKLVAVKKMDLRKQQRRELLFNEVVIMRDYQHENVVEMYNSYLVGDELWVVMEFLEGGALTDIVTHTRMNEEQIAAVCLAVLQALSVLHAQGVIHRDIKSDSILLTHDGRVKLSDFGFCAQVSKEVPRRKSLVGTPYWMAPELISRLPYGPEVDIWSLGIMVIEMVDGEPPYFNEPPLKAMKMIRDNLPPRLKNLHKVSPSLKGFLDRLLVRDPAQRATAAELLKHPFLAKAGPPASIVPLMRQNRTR
UniProt P11802, sequence (whole entry, looked up): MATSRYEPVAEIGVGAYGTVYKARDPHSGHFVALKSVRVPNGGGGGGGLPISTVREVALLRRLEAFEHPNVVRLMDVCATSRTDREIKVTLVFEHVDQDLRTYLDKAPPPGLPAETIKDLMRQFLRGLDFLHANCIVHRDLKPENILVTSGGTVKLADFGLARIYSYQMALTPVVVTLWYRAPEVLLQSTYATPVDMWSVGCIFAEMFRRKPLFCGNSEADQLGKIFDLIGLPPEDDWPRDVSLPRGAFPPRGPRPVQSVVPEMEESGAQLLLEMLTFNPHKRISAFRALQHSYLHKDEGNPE
UniProt P31323, sequence (whole entry, looked up): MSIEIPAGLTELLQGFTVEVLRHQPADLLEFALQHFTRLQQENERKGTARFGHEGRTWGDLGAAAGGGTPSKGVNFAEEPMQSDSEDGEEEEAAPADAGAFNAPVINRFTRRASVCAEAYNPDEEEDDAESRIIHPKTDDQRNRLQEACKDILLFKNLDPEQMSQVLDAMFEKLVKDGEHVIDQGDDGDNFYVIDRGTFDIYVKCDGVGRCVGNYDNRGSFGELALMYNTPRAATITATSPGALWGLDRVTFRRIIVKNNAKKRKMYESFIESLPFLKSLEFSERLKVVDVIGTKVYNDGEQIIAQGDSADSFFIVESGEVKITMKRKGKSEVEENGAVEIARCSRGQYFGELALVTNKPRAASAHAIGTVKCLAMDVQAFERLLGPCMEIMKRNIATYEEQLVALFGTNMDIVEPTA
UniProt O00270, sequence (whole entry, looked up): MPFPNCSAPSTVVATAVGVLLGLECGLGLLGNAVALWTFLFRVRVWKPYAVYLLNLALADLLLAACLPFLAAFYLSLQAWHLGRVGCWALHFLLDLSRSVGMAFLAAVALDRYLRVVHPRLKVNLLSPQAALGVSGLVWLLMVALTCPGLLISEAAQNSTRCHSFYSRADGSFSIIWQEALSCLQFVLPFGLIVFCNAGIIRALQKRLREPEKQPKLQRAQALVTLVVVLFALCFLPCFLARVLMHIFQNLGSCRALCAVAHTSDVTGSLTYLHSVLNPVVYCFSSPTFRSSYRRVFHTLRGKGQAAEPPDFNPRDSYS

Cc1sc2c(c1C)C(c1ccc(Cl)cc1)=N[C@@H](CC(N)=O)c1nnc(C)n1-2
viability (OCI-Ly1; 0.5 µM, 120 h): 22.7%

Cc1cc(C(C)(C)c2ccc(O)c(C)c2)ccc1O
inhibition (HepG2 spheroids; cell proliferation, flow cytometry, item: Ki67; 40 µM, 24 h; baseline: solvent control): 18.5%

C/C=C(/C)C(=O)O[C@H]1C(C)=C2[C@H]([C@@H]1OC(=O)CCCCCCC)[C@@](C)(OC(C)=O)C[C@H](OC(=O)CCC)[C@@]1(O)[C@H]2OC(=O)[C@@]1(C)O
normalized enrichment score (HEK-293T; RNA-seq GSEA, item: Hallmark DNA repair; 500 nM, 6 h; direction not given): 1.1

N.N.[Cl][Pt][Cl]
EC50 (A-375; viability, MTT; 72 h): 8.13 ± 3.18 µM

CC(C)N1CCC(NC2CCN(c3cccc(-c4cc5cc(F)ccc5[nH]4)c3)CC2)CC1
GI50 (SN12C): 1.61 µM

COc1cc(CCC[P+](c2ccccc2)(c2ccccc2)c2ccccc2)c(OC)c2c1OCO2.[I-]
TGI (SK-MEL-5; SRB): -5.6 log M

C=C1CC[C@@H]2[C@](C)(CCC[C@]2(C)C(=O)O)[C@H]1CC/C(C)=C/CO
PARP cleavage (neuroblastoma M2 (+); western blot; IC50; baseline: untreated): increased

COCCCn1c(N)c(C(=O)NC2CCCC2)c2nc3ccccc3nc21
viability (OCI-Ly1; 0.1 µM, 120 h): 194%

[2H]c1c([2H])c([C@]2([2H])CCCN2C(=O)C(C)(C)Oc2ccc3cn[nH]c3c2)c([2H])c([2H])c1C([2H])([2H])[2H]
remaining binding (CDK4 (Homo sapiens, UniProt P11802); KINOMEscan; 1 µM; baseline: DMSO control): 94%

CCOP1(=O)CC=Cc2cc(N)ccc2O1 (stereo not drawn)
maximal inhibition (A-375; cell proliferation, MTT; 100 µM, 72 h, normoxia): 10 to 15%

O=S(=O)(c1ccc(O)cc1)c1ccc(O)cc1
G2 phase cells (HepG2 spheroids; Hoechst flow cytometry; 0.01 µM, 96 h): 17.1 ± 3.61%

Oc1ccc2c3c1O[C@H]1[C@@H](O)CC[C@@]4(O)[C@@H](C2)N(CC2CCC2)CC[C@]314
log2 fold change (12-(S)-hydroxy-5,8,10,14-eicosatetraenoic acid receptor (GPR31, Homo sapiens, UniProt O00270); β-arrestin recruitment, TANGO luminescence, item: GPR31; concentration not given; baseline: basal luminescence): -0.033

Cn1cncc1C1=CN(c2ncnc3[nH]cnc23)CCS1
CC50 (SN12C; renal cancer): > 200 µM

C[C@H]1CN(c2n[nH]c3nc(N[C@H]4CC[C@H](NS(=O)(=O)CCC(F)(F)F)CC4)ncc23)CCO1
relative abundance (PRKAR2B (Homo sapiens, UniProt P31323); inhibitor, Kinobeads competition profiling; 20 µM; baseline: vehicle): 1.09

O=C(O)c1ccc2c(c1)nc(Nc1cccc(Cl)c1)c1ccncc12
EIF2S2 S2 phosphorylation (U2OS expressing CK2alpha-HA V66A/I174A; western blot, item: phospho-EIF2S2 S2; concentration not given, 24 h): inhibited

CC(C)[C@H](N)C(=O)N1CCC[C@H]1B(O)O
viability (EA.hy926 GSDMD knockout; CellTiter-Glo; concentration not given): 77.5% and 77.3% and 78.8%

CSCC[C@H](NC(=O)[C@@H](N)CCCNC(=N)N)C(=O)N[C@@H](Cc1ccccc1)C(=O)NCC(=O)N1CCC[C@H]1C(=O)N[C@H](C(=O)N[C@@H](CCC(N)=O)C(=O)N[C@H](C(=O)N[C@@H](Cc1ccc(O)cc1)C(=O)O)[C@@H](C)O)C(C)C
IC50 (HLA class I histocompatibility antigen, A alpha chain, allele A*24:02 (Homo sapiens, UniProt P04439); binding): 3.87 µM

COc1ccc(N2C(=O)N(c3c(C)cccc3Cl)Cc3cnc(Nc4ccc(C5CCN(C)CC5)cc4OC)nc32)nc1
inhibition (PAK4 (Homo sapiens, UniProt O96013); kinase activity; 0.5 µM): 2%

CCOC(=O)c1ccc(N2C(N)=C(C#N)C3(C(=O)Nc4ccccc43)C(C#N)=C2O)cc1 (stereo not drawn)
mRNA fold change (Caco-2; qRT-PCR, item: Bax; IC50; baseline: untreated): 7.51

CN(C)c1cc(NC(=O)CNC(C)(C)C)c(O)c2c1C[C@H]1C[C@H]3[C@H](N(C)C)C(O)=C(C(N)=O)C(=O)[C@@]3(O)C(O)=C1C2=O
MIC (Escherichia coli DH5α expressing KPC-2; bacterial growth): 0.125 µg/mL (≈ 0.213 µM)

CCN(CC)c1ccc(C=NNC(=O)CSc2nc3ccccc3c(=O)n2Cc2ccc(S(N)(=O)=O)cc2)c(O)c1
CC50 (SK-MEL-5; NCI five-dose screen): 77.5 µM

CC(C)C[C@H](NC(=O)[C@H](CCC(N)=O)NC(=O)[C@H](CCCNC(=N)N)NC(=O)[C@H](CO)NC(=O)[C@H](Cc1ccc(O)cc1)NC(=O)[C@H](CC(C)C)NC(=O)[C@@H](N)CCCNC(=N)N)C(=O)N[C@@H](Cc1c[nH]cn1)C(=O)N[C@@H](Cc1ccccc1)C(=O)O
IC50 (HLA class I histocompatibility antigen, A alpha chain, allele A*02:01 (Homo sapiens, UniProt P04439); binding): 0.539 µM

Cn1cc(-c2ccc(-c3cncc(Cl)c3N3CCC4(CCNC4=O)CC3)cc2)cn1
fold change in expression (COLO 205; microarray, item: BIRC5; concentration not given, 2 h, gene set Survivin; baseline: untreated cells): -2.41

Nc1ccc([N+](=O)[O-])cc1
Emax (human cells; reporter gene, agonist, luciferase reporter; baseline: positive control): 3.23%

COc1ccc2c(c1)[nH]c1c(C)nccc12
methylation reduction (DU-145; bisulfite pyrosequencing, item: RASSF1A promoter CpG site 2; concentration not given; baseline: vehicle): 0%

COc1c(C)c2c(c(O)c1C/C=C(\C)CCC(=O)O)C(=O)OC2
IC50 (OVCAR-3; cell proliferation): 0.407 µM

O=C(Nc1ccc2[nH]nc(-c3ccncc3)c2c1)[C@@H]1CCN(CC(=O)N2CCN(c3ccc(-c4ncccn4)cc3)CC2)C1
PI-positive cells (HCT116; IncuCyte; concentration not given, 16 (unit not given)): 4.67 count and 3.75 count and 3.92 count

N=C(N)NCCC[C@@H]1NC(=O)[C@H](CCCCNC(=O)c2ccc(CNC34CNCCNCC(N)(CNCCNC3)CNCCNC4)cc2)NC(=O)[C@@H](Cc2ccc(O)cc2)NC(=O)[C@H](CC(=O)O)NC(=O)CNC1=O [copper-64 labelled]
tissue uptake (ex vivo biodistribution; male athymic nude mouse, PC-3 tumour, intestine; 7.4 MBq, 48 h): 1.6 ± 0.51 %ID/g

N.N.[Cl][Pt][Cl]
IC50 (MDA-MB-231; cell viability; 48 h, light irradiation 2.5 min): 33.68 ± 0.23 µM

Nc1ncnc2c1ncn2[C@@H]1O[C@@H]2COP(=O)(O)O[C@H]3[C@@H](O)[C@H](n4cnc5c(=O)[nH]cnc54)O[C@@H]3COP(=O)(O)O[C@H]2[C@H]1O
pathway fold enrichment (HFF-1; RNA sequencing Reactome analysis, item: Reactome R-HSA-3000178 ECM proteoglycans; with: West Nile virus infection; baseline: West Nile virus infected cells, downregulated pathway): 6.2

CN1CCN(C2(CNC3CCN(c4cccc(-c5cc6cc(F)ccc6[nH]5)c4)CC3)CCC2)CC1
CC50 (HOP-92): 5.79 µM

Oc1ccc(C2(c3ccc(O)cc3)c3ccccc3-c3ccccc32)cc1
cell cycle distribution (HepG2 spheroids; flow cytometry; concentration not given, 96 h): no effect

CC[C@H](C)[C@@H]1NC(=O)[C@@H]2CCCN2C(=O)[C@H](CC(C)C)NC(=O)[C@H](CC(C)C)NC(=O)CNC(=O)[C@@H](NC(=O)[C@@H](NC(=O)[C@H](CC(=O)O)NC(=O)CNC(=O)[C@@H](NC(=O)[C@H](C)NC(=O)CNC(=O)[C@H](CCCCN)NC(=O)[C@H](CC(C)C)NC(=O)[C@H](CC(C)C)NC(=O)[C@H](CCCCN)NC(=O)CNC(=O)[C@@H](NC(=O)[C@@H](N)CC(C)C)C(C)C)C(C)C)C(C)C)CSSC[C@@H](C(=O)O)NC1=O
log2 fold change (RNA-seq, item: Cd274; mouse, traumatic brain injury model, frontal cortex and hippocampus; dose not given; baseline: TBI alone): -2.68

COc1c(CCC[P+](c2ccccc2)(c2ccccc2)c2ccccc2)cc2c(c1OC)OCO2.[I-]
GI50 (SN12C; SRB): -5.62 log M

O=C1CCP(=S)(c2ccccc2)CC1
early apoptotic cells (HCT-116; annexin V/PI flow cytometry; IC50, 72 h): 2.9%

Nc1ncc(-c2nc(N3CCOCC3)nc(N3CCOCC3)n2)c(C(F)F)n1
GI50 (KU812; 72 h): 0.52 µM

Nc1nc2nc[nH]c2c(=S)[nH]1
surviving fraction (HCT-116 3-6; clonogenic; 2.5 µM, 10 days): 0.175

CC[C@H](C)[C@H](NC(=O)[C@H](C)NC(=O)[C@H](CCCCN)NC(=O)[C@H](CC(C)C)NC(=O)[C@H](C)NC(=O)[C@@H](NC(=O)[C@H](Cc1c[nH]cn1)NC(=O)[C@H](CC(C)C)NC(=O)[C@@H](NC(=O)[C@@H](NC(=O)[C@H](CCCCN)NC(=O)[C@H](C)NC(=O)[C@H](C)NC(=O)[C@H](CO)NC(=O)[C@H](CCCCN)NC(=O)[C@H](Cc1ccccc1)NC(=O)[C@@H](NC(=O)[C@H](CCCCN)NC(=O)[C@H](CC(C)C)NC(=O)[C@H](Cc1ccccc1)NC(=O)[C@H](CO)NC(=O)[C@H](CCCCN)NC(=O)[C@H](Cc1c[nH]c2ccccc12)NC(=O)[C@H](CCCCN)NC(C)=O)[C@@H](C)O)[C@@H](C)O)C(C)C)[C@@H](C)O)C(=O)N[C@@H](CO)C(=O)N[C@@H](CO)C(N)=O
MBC50 (Acinetobacter baumannii; 33 strains): 2 µg/mL (≈ 0.682 µM)

COc1cc(C[C@@H](C)[C@@H](C)Cc2cc(O)c(OC)c(OC)c2)cc(O)c1OC
CCL2 mRNA level (THP-1 cells PMA-differentiated; qRT-PCR; 10 µM, 24 h, with: LPS 1 µg/mL; baseline: LPS alone): decreased

Excerpt of the above:
CC[C@H](C)[C@@H]1NC(=O)[C@@H]2CCCN2C(=O)[C@H](CC(C)C)NC(=O)[C@H](CC(C)C)NC(=O)CNC(=O)[C@@H](NC(=O)[C@@H](NC(=O)[C@H](CC(=O)O)NC(=O)CNC(=O)[C@@H](NC(=O)[C@H](C)NC(=O)CNC(=O)[C@H](CCCCN)NC(=O)[C@H](CC(C)C)NC(=O)[C@H](CC(C)C)NC(=O)[C@H](CCCCN)NC(=O)CNC(=O)[C@@H](NC(=O)[C@@H](N)CC(C)C)C(C)C)C(C)C)C(C)C)CSSC[C@@H](C(=O)O)NC1=O
log2 fold change (RNA-seq, item: Cd274; mouse, traumatic brain injury model, frontal cortex and hippocampus; dose not given; baseline: TBI alone): -2.68

CC(C)C[C@H](NC(=O)[C@H](CCC(N)=O)NC(=O)[C@H](CCCNC(=N)N)NC(=O)[C@H](CO)NC(=O)[C@H](Cc1ccc(O)cc1)NC(=O)[C@H](CC(C)C)NC(=O)[C@@H](N)CCCNC(=N)N)C(=O)N[C@@H](Cc1c[nH]cn1)C(=O)N[C@@H](Cc1ccccc1)C(=O)O
IC50 (HLA class I histocompatibility antigen, A alpha chain, allele A*02:01 (Homo sapiens, UniProt P04439); binding): 0.539 µM

COCCCn1c(N)c(C(=O)NC2CCCC2)c2nc3ccccc3nc21
viability (OCI-Ly1; 0.1 µM, 120 h): 194%

Oc1ccc(C2(c3ccc(O)cc3)c3ccccc3-c3ccccc32)cc1
cell cycle distribution (HepG2 spheroids; flow cytometry; concentration not given, 96 h): no effect
